Published values collected from several papers.
Each numbered part is a random draw from the data of one study; scales do not carry over between parts.

Sample 1 — method: Sort-seq; measured: YFP reporter; medium: E. coli; setting: PhoQ-PhoP variant library; together with: 10 µM Mg2+; reference: high Mg2+ state; direction: higher = stronger signaling
Molecule: PhoQ, residues 284 288 289 292 302 303 SIHMAM
target | fold induction
PhoP, residues 12 14 15 18 19 LHTVL (Escherichia coli, UniProt P23836) | 0.777
PhoP, residues 12 14 15 18 19 TQAML (Escherichia coli, UniProt P23836) | 16.5
PhoP, residues 12 14 15 18 19 NQCAL (Escherichia coli, UniProt P23836) | 9.31

Sample 2 — method: protein binding microarray; molecule type: double-stranded DNA, one strand shown; medium: in vitro; tested at: not given; reference: not given; direction: higher = stronger binding
Target: Histone acetyltransferase KAT6A, both winged helices, GST fusion (KAT6A, Homo sapiens, UniProt Q92794, residues 1-181)
Setting: 8-mer, flanks averaged, mean of 2 arrays, mostly near background
Target sequence (chain): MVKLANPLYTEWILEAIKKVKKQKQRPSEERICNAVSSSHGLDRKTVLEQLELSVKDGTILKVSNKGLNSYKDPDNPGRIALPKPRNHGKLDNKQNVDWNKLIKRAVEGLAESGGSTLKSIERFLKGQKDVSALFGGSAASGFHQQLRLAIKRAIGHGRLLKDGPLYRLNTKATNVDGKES
Oligonucleotide | E-score
CCCGATAA | 0.038
GATGCTAC | -0.122
GCTGTTAA | 0.197
ATCAGAAT | -0.127
ACATACGG | 0.237
AGTCCAAG | -0.184
CTATGAGC | -0.0969

Sample 3 — method: RNA Bind-n-Seq; molecule type: RNA; medium: in vitro; tested at: 365 nM; reference: no-protein control; direction: higher = stronger binding
Target: RNA binding protein fox-1 homolog 2, RRM domain, GST-SBP tag (RBFOX2, Homo sapiens, UniProt O43251-10, residues 100-194)
Setting: natural RNA segment, single round, ends assumed
Constant ends, left off below: GGGAGUUCUACAGUCCGACGAUC … UGGAAUUCUCGGGUGCCAA
Target sequence (chain): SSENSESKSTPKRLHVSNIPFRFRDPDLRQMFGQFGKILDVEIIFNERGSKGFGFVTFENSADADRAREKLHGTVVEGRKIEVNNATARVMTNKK
Oligonucleotide | RBNS enrichment (R)
GCUUUGGGGUGUGGCCUGUGACUGUGUUUCCCAGGUGGGGACCAGAAGAUGUCUGAGGUCCUCCUGAGCCCUGAAAUCUUGAUAAUCAGGAAUACCCAGGGUGGUGGGAC | 0.314
UAGUUAAGAGUGGGGUCACCCCUUUAACUCCAAGCACUACAUUUUGGCGGCUGCCGGCCUCUGGGGGAGGUGGCAGUUAUGCUGUUACUAGUGAUUUUAGGGCUUUGUUA | 0.552
AUAAAAACAAAAAUGCUAAAUUAUAUCUGUGAAUUGCAGGUAUUGGGGAACAGUUUUAAGGGAAAUUUUGGGGGGAACAUUUUAGGUUUGUAUUUGGUAGUCUUAAUGUA | 2.14
CUCCCCAAAAGCCACUGCUGGGAUGCUGGCCUCUGAUUUUUGAGCCAGCGUUGUCUCACUCUGAUCCCUACCCUGAGCCUGCUGAACUGCCCUCAGAGUGCUCAUAUGGG | 0.343
CUAUAGGAGGCCAAGUGUUAGCUAUCCAGGGCCCCUCCACUGCUGCAGCCAGUGUGCUCUUGAAUAACAAGCAGGUUAAGGGGCUGGAGGAUCAGAAAGAUACCCCAGCU | 0.254
UUAUUCCUAAACACAGUUACAGACACGCAGUCGAGAUCUUUCUUGAUGCUUGGGAUCUCAAGACUGUCUGCCUUCCUGCCUGCUCCUCAGGCCUGAGAGAGGAGCUGCUC | 1.03

Sample 4 — method: RNA Bind-n-Seq; molecule type: RNA; medium: in vitro; tested at: 100 nM; reference: input RNA pool; direction: higher = stronger binding
Target: RING finger protein unkempt homolog, zinc fingers 1-6, SBP tag (UNK, Homo sapiens, UniProt Q9C0B0, residues 30-357)
Sequence of UniProt Q9C0B0 (30-357, looked up): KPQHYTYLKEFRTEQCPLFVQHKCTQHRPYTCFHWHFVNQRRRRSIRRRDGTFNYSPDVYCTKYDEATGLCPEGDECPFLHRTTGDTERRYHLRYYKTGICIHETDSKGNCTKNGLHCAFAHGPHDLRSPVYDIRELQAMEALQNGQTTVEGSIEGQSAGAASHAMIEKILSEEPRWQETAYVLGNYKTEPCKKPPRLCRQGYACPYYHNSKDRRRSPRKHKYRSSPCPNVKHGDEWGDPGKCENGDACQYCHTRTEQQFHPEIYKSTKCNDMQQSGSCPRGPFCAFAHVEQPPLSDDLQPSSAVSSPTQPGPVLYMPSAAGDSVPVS
Setting: RNA with constant flanks, vertebrate orthologous sites, ends assumed
Constant ends, left off below: GGGAGUUCUACAGUCCGACGAUC … CAACAGAGGAUUGAGCAUCA
Oligonucleotide | bound/input enrichment
AGUAUCCCAGUUGUACUGUGUUGGGUUGGCAUUGUACAGAAAUUAACAGCCAUAUUGGUCUAGAAAUGUUCAACAUACUUUUUUCCAUUUGUACAGGGGUAACGCACUGUAUUAAAUAUA | 0.597 ratio
CUCUAUGGGCCUCGCAGAGUUGAAGUAAUGGAAGAGGACAGUGAACAGUAAUCUUCAUUUUAGUAUUUAUGCUUAGAUGUGAAAUAAAUGUUAUUUGUUGAUCAUUUCUAUAAUCCAGAA | 0.4 ratio
UUUUGUUUUGUUUUGUUUUCUUUUUUUUUUAUCCUCACCCCCCUCCCUUGAUUUUGGUUUCAGGGCUGGGUGGGCUGUGCACAUGCCUCUGAGACCAGAACUGUCUGGUUCAUCUGUACU | 0.564 ratio
AUAUUCAAUCAUGGAGAAAAAGAUAUUAAAAUAAUUUCGUGGCACUGGUAUUAAUUUAUUAGUUUUACAAGUGUUAGGGUUCUUGUUUACAUACAACAGAAACUGGCUCGUAAUUAAAGA | 0.377 ratio
GAAAAUUAUAGCAAAAGAGCCAAGCAGUAGCAUUGUUUAUUUUGUAAAUGUAAAAAUAAUUAGAUGCAAACCUUGUUUCCUUAUUCAAUUUUAAAAAUAAAAAAUACCUCAGUGCUAUGU | 0.533 ratio
UUCAGGCACAACUGACUGGUUCACAGCAUUCCUUACACAGUUAUCUAUCAAAUGCAAGUGGGGUUAAUUUUCAGGAAACAAGCAGGCAGUCAUCUUUAUCCUGUAGCCCAAUUGGAGAGU | 1.07 ratio
AAACUUAGAAAUUGGAGUGAAAGCAGAAUCUAGCAUAAGUAAAACAAGCAUGAAAUGAUCACCACACUCAGUACAACACAGCCUAAGCUGCCACUUAGGGUAGCUAUGUGAAAUAAAAUC | 2.25 ratio
GAGCAGUAAACUGUGCUGGUGCGGAAUCCUGUGCACCAGUGCCCCCUUCACACCACUGUCCUACCUACAGGAAUUUAAUAUUUUUAAAGUUUUACAAUACUGUAUGUAUAUUCAAAGAUU | 0.248 ratio

Repeated from above (sample 3):
Oligonucleotide | RBNS enrichment (R)
CUCCCCAAAAGCCACUGCUGGGAUGCUGGCCUCUGAUUUUUGAGCCAGCGUUGUCUCACUCUGAUCCCUACCCUGAGCCUGCUGAACUGCCCUCAGAGUGCUCAUAUGGG | 0.343
UUAUUCCUAAACACAGUUACAGACACGCAGUCGAGAUCUUUCUUGAUGCUUGGGAUCUCAAGACUGUCUGCCUUCCUGCCUGCUCCUCAGGCCUGAGAGAGGAGCUGCUC | 1.03
